Published values pooled from the literature.
A part holds a random share of what one study measured.
Sequence of UniProt Q6ZWH5 (whole entry, looked up): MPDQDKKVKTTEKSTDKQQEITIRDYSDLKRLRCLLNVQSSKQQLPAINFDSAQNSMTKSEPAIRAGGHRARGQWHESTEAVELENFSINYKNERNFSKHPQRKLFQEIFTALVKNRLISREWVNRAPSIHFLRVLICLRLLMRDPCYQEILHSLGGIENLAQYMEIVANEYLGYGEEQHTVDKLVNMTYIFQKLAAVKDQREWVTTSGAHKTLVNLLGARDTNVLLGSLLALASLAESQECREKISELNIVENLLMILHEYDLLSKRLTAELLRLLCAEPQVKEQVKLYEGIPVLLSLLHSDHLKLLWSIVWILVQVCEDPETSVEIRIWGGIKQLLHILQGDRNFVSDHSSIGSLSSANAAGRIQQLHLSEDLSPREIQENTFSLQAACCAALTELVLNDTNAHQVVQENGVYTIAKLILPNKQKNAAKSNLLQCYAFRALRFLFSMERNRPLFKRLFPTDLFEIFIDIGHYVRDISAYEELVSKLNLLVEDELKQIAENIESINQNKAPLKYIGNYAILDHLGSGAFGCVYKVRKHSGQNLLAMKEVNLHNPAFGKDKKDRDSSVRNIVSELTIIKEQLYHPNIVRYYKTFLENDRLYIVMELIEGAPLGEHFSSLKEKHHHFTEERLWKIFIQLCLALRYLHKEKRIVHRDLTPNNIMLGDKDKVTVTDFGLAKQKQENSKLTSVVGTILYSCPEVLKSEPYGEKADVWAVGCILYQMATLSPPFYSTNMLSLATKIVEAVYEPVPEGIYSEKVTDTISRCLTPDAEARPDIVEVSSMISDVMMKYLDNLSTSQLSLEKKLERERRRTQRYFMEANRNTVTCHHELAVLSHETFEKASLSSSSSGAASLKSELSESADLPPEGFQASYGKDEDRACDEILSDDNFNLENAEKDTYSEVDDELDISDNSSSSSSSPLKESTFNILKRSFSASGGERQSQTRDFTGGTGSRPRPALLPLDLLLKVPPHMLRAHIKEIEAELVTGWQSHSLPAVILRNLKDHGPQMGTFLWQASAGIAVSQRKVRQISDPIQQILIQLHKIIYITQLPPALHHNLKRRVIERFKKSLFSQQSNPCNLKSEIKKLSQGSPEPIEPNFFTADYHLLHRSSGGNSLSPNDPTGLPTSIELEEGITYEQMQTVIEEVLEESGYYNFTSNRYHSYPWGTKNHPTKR
Sequence of UniProt Q92918 (whole entry, looked up): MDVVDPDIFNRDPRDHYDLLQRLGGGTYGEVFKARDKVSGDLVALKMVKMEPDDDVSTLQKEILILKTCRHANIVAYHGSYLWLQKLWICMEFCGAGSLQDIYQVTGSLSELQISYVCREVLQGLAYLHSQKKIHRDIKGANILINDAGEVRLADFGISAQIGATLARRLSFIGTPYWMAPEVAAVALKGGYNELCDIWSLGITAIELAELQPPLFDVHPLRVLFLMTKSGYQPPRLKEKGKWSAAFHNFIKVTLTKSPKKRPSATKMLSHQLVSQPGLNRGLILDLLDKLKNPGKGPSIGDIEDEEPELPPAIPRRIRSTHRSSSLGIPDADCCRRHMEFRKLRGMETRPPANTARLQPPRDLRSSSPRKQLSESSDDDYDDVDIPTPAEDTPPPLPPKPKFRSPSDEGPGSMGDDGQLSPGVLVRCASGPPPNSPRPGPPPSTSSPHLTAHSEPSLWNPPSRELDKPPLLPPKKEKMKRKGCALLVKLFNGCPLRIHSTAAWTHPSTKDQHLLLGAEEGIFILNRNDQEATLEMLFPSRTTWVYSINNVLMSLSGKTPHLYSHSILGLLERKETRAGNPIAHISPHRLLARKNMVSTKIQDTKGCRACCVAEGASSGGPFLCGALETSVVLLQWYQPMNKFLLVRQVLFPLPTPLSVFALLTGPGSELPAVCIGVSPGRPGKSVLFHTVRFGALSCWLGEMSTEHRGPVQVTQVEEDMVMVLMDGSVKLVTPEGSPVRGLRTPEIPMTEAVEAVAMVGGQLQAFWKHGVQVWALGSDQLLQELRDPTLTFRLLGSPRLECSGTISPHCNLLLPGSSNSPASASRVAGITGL
Sequence of UniProt P07333 (whole entry, looked up): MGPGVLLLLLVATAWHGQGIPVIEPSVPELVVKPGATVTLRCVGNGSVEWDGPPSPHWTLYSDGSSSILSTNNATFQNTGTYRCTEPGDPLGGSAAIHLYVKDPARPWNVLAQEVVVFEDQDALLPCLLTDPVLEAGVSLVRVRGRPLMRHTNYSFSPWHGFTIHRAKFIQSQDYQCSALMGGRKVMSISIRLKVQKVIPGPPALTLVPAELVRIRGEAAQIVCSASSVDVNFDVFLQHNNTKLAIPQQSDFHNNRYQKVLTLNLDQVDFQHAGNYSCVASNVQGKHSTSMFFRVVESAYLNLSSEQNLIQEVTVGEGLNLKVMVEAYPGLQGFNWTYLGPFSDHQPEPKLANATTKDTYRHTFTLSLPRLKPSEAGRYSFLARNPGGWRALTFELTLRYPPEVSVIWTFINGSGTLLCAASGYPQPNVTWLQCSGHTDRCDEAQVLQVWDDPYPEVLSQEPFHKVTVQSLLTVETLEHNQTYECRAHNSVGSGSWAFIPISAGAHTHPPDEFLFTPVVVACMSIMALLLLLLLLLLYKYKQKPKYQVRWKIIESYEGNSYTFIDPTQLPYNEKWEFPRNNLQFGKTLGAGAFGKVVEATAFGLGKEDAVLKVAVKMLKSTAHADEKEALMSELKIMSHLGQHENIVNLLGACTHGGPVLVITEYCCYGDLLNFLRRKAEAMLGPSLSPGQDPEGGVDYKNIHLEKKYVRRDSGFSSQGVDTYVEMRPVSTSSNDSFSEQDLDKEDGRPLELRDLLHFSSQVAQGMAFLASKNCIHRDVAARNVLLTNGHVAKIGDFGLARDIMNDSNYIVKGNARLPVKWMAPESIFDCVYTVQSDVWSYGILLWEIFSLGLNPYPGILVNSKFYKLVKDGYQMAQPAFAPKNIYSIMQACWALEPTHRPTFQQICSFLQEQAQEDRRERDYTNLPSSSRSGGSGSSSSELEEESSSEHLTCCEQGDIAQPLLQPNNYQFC

Sample 1
Target: HLA class I histocompatibility antigen, C alpha chain, allele C*04:01 (Homo sapiens, UniProt P10321)
Observed: peptide-MHC binding
Form: peptide
Concentration: concentration not given
Sequence | binding
SEMGANFKA | inactive
SLLERGQQLGV | inactive
YARRYFYPL | inactive
YTMELCGAM | inactive
NTDNKFISY | inactive
YTIGIGAFY | inactive
ISDPLTSGL | inactive
VEYHYTFYI | inactive
RYDKSAADL | inactive
GTFEFTSFF | inactive
YTITSLFSL | inactive
HPASRLFPF | inactive
MMWATAQAL | inactive
VGYYTFHPK | inactive
MGAGLVFPI | inactive
FYADPKRYF | inactive
YSLEYFQFV | inactive

Sample 2
Target: Protein C-ets-1 (ETS1, Homo sapiens, UniProt P14921, residues 1-441, K379A, full length assumed)
Method: protein-binding microarray
Form: double-stranded DNA, one strand shown
Matrix: in vitro
Concentration: not given
Setting: k-mer, scored over probes, only values ≥0.25
Direction: higher = stronger binding
Target sequence (chain): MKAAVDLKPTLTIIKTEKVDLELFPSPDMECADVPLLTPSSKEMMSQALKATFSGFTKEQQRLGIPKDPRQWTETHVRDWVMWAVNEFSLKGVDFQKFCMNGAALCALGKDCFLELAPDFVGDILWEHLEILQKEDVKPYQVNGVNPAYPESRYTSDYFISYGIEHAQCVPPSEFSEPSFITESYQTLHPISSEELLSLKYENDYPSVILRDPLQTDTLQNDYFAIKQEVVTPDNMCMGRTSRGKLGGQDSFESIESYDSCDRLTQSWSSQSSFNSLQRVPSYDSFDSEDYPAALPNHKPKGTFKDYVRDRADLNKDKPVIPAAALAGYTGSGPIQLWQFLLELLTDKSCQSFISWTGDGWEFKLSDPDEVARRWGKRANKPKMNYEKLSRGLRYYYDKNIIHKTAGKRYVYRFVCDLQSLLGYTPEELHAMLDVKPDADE
Oligonucleotide | E-score
ACGTGTTC | 0.251
ACTTCCTG | 0.326
CCGGATAA | 0.327
ACCGGCCG | 0.325
AACACCGG | 0.37
CGGTATAA | 0.341
GTAATGAC | 0.265
TCCGGCGA | 0.292

Sample 3
Target: RNA binding protein fox-1 homolog 2, RRM domain, GST-SBP tag (RBFOX2, Homo sapiens, UniProt O43251-10, residues 100-194)
Method: RNA Bind-n-Seq
Form: RNA
Matrix: in vitro
Concentration: 365 nM
Setting: natural RNA segment, single round, ends assumed
Baseline: no-protein control
Direction: higher = stronger binding
Constant ends, left off below: GGGAGUUCUACAGUCCGACGAUC … UGGAAUUCUCGGGUGCCAA
Construct (chain): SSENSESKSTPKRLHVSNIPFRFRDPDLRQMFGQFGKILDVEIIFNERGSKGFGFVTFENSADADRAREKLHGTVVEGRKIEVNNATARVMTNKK
Oligonucleotide | RBNS enrichment (R)
CACCCUGACUAUGGGACGGAAAUCAGUGCUGCAUCUUCAUGGGCUGCUCUGCUCGGAGAUGGGGCCCGAGGGGCCCGUUUUGUUCAGAAAUAUAUUUUAAAUGUUUAGUA | 0.393
UGUAUAAAGUCACAUGUACUGCCAUACUACUUCUUUGUAUAUAAAGAUGUUUAUAUCUUUGGAAGUUUUACAUAAAUCAAAGGAAGAAAGCACAUUUAAAAUGAGAAACU | 0.797
UAGGGCGCAUUAUAAAUGCAUUAAUCCUUAUAGUCAAUCCUGUGCCUAGGAUUUUGCAAGGGAACAGUUCACUGACUAGGAAAAGCACUACAUUUAAAACUCAGCAUUAG | 0.917
CCUCCCCACCCGGGGAAGCCAUCACAGCUCAUCUGCCCGCGGCUGCGUGAGGACAGCAGGGGUUUUUCUUCAGAGUCUAUUUUUUCAGCGACAAGGACCCAGGUCUUCCU | 0.753
CUCCUAAUGUAUUUGUUGGUUUCAUUUCAUUUUCAUUUUGCACUUGCACUAAAUUGAACAUGACCCUGUUAGAGAUGUUAUAAAGGGAAUGAAAUCCUGGAACUCAGAGU | 16.8
UUUUGUGGUUAAACUUCUAAAGUUUUGAACUGUAAGCAGAAUUUUGUUUUGUGAUAUUUUAUUGUAUAAACUGUUAAUGAGAGGCACAGCUAAUUGUACAUAUCAAUAUA | 1.1
AAUAUGGAUCAAAAAGAGUCUUGGAUACUCAGCCCCAUAUUUUGUGCUGAACUGACAUGAACAACCGAGAAUGUCCUUCUUGGUUGUCAAAAGACAGUUUUCCAUCCUAC | 0.243
AAUCUGGGCUGGUCCUUCUAUAUUCUUGGUCCCAGUUGGUCAUAACACCAAGGGCUUUGCCCUGCGCUGCUUUGCCACUGCUGCUGUCCGCUCACUGUCCUGCCUGCUGU | 1.07

Sample 4
SMILES: Cn1cncc1[C@@](O)(COc1ccc(C#N)cc1-c1ccc(OC(F)(F)F)cc1)c1ccc(C#N)cc1
Observed: cell-free assay
Method: competition with immobilised ligand
Concentration: 1 µM
target | remaining binding [%]
Macrophage colony-stimulating factor 1 receptor (CSF1R, Homo sapiens, UniProt P07333) | 85
Serine/threonine-protein kinase Nek10 (NEK10, Homo sapiens, UniProt Q6ZWH5) | 84
Mitogen-activated protein kinase kinase kinase kinase 1 (MAP4K1, Homo sapiens, UniProt Q92918) | 100

Other studies, line by line
SMILES | target | observed | mode | concentration | quantity | result
CC(C)(C)c1cc(C=C(C#N)C#N)cc(Br)c1O | Cyclin-dependent kinase 2, with cyclin A (CDK2, Homo sapiens, UniProt P24941) | enzyme activity | inhibitor | 0.5 µM | remaining activity | 90.7%

For quick reference, copied from above (sample 2):
Oligonucleotide | E-score
ACCGGCCG | 0.325
AACACCGG | 0.37
CGGTATAA | 0.341
GTAATGAC | 0.265
